Measured values pooled from the literature.
Several values in a cell are separate wells, animals, samples, runs or records. Numbers after ± are the reported error.

Nc1nc(NS(=O)(=O)c2ccccc2)nc(-c2ccccc2)c1-c1nc2ccccc2s1 — result for “maximum non-toxic concentration”: 90 µg/mL (BGM; cytotoxicity; 72 h).
The viability of O=C(C[C@@H](C(F)F)n1ccc(F)n1)N1CCC(O)(Cn2cnc3c(cnn3-c3ccc(F)cc3)c2=O)CC1 is reported as 75.9% and 71.4% (CHP-212 parental; SRB; 0.02744 µM).
Under “maximum non-toxic concentration”, CSc1c(-c2nc3ccccc3s2)c(N)n(NS(=O)(=O)c2ccccc2)c(=O)c1C#N is recorded as 90 µg/mL (BGM; 72 h).
Under “maximum non-toxic concentration”, COc1ccc(-c2nc(N)nc(N)c2-c2nc3ccccc3s2)cc1 is recorded as 70 µg/mL (BGM; cytotoxicity; 72 h).
CCSc1c(-c2nc3ccccc3s2)c(N)n(NS(=O)(=O)c2ccc(C)cc2)c(=O)c1C#N: “maximum non-toxic concentration” 120 µg/mL (BGM; 72 h).
CCn1c(=O)c(-c2cc[nH]n2)cc2c(C)nc(N)nc21: cytotoxicity “not toxic” (RD; MTT; up to 0.8 µM, 24 h).
CC(=O)CNc1nc(NS(=O)(=O)c2ccccc2)ncc1-c1nc2ccccc2s1 — result for “maximum non-toxic concentration”: 60 µg/mL (BGM; cytotoxicity; 72 h).
Cc1cc(C(=O)NC(C)(C)COc2cccc3c2C(N)=NS(=O)(=O)N3)cc(C)n1 has a cytotoxicity of -10% (human peripheral blood lymphocytes; CBPI, preliminary test; 0.2 µg/mL, 24 h; relative to: vehicle control).
Cc1cc(/C=C/C#N)cc(C)c1Nc1ccnc(Nc2ccc(C#N)cc2)n1 gave a CC50 of over 5 µM (TZM-bl; CellTiter-Blue; 48 h).
Under “maximum non-toxic concentration”, CSc1nc(NS(=O)(=O)c2ccc(C)cc2)nc(N)c1-c1nc2ccccc2s1 is recorded as 100 µg/mL (BGM; cytotoxicity; 72 h).
The viability of O=P1(C2CCCCC2)CCCCC1 is reported as 94.7% (PC-3; trypan blue; IC50, 72 h).
For CC(=O)Nc1cccc(-n2c(=O)n(C3CC3)c(=O)c3c(Nc4ccc(I)cc4F)n(C)c(=O)c(C)c32)c1, the viability was 0.367 and 0.323 (LoVo (KRAS G13D); resazurin; 50.00 nM, 72 h, unit not given; relative to: DMSO).
The efflux ratio of C[C@]12CC[C@@H]3c4ccc(OS(=O)(=O)O)cc4CC[C@H]3[C@@H]1CCC2=O is reported as 10.7 (Caco-2 cells; with: novobiocin; relative to: without over with novobiocin).
The viability of O=C(O[C@@H]1COC(=O)c2cc(O)c(O)c(O)c2-c2c(cc(O)c(O)c2O)C(=O)O[C@H]1[C@@H]1OC(=O)c2cc(O)c(O)c(O)c2-c2c(O)c(O)c(O)c3c2C(=O)O[C@H]1[C@@H]3O)c1cc(O)c(O)c(O)c1 is reported as over 75% (SIM-A9 microglia; MTT; 6.67 to 213.3 µM).
Cc1noc(C)c1Cn1cc(N2C(=O)CN(Cc3cccc(O)c3)C2=O)cn1 — result for “aberrant cells without gaps”: 2% (human blood lymphocytes; 200 µg/mL, 21 h).
CCSC(SCC)=C(C#N)c1nc2ccccc2s1: “maximum non-toxic concentration” 110 µg/mL (BGM; 72 h).
For CCCN1CCCC[C@H]1C(=O)Nc1c(C)cccc1C, viability read “decreased” (C2C12 myotubes; MTS; 1 to 3 mM, 24 h; relative to: prilocaine).
Cc1cc(C)c(CNC(=O)c2cc(Cl)c3c(c2C)O[C@@](C)([C@H]2CC[C@H](N(C)C)CC2)O3)c(=O)[nH]1: “Papp A to B” 0.41 ± 0.013 ×10⁻⁶ cm/s (Caco-2; 20 µM).
COc1c(C)c(OC)c2c(c1C)OC(c1ccccc1)CC2=O (stereo not shown) has an IC50 of over 50 µM (normal human liver cell line; cytotoxicity, SRB; 72 h).
CS(=O)(=O)CCNCc1ccc(-c2ccc3ncnc(Nc4ccc(OCc5cccc(F)c5)c(Cl)c4)c3c2)o1 gave a CC50 of over 3.33 µM (Ba/F3 IL-3-dependent; cell proliferation; 48 h, counter-screen).
O=C(CNc1nc(NS(=O)(=O)c2ccccc2)ncc1-c1nc2ccccc2s1)c1ccc(Cl)cc1: “maximum non-toxic concentration” 110 µg/mL (BGM; cytotoxicity; 72 h).
CCSc1c(-c2nc3ccccc3s2)c(N)n(NS(=O)(=O)c2ccccc2)c(=O)c1C#N: “maximum non-toxic concentration” 120 µg/mL (BGM; 72 h).
With FC(F)(F)CN1CC(n2cc(Oc3ccn4nc(Cl)cc4n3)cn2)C1 the efflux ratio was 1.7 (Caco-2/TC7; 1 µM; relative to: B-A over A-B).
COc1ccc(Cn2cc(CO[C@@H]3O[C@H]4[C@H](OC[C@H]4O)[C@H]3O)nn2)cc1: viability “not toxic” (CAL-51; cytotoxicity, CellTiter-Glo; up to 30 µM, 72 h).
C[C@H]1[C@H](OC(=O)CCC(=O)O)O[C@@H]2O[C@@]3(C)CC[C@H]4[C@H](C)CC[C@@H]1[C@@]24OO3 — result for “highest non-toxic concentration”: over 10 µM (human iPSC-derived endothelial cells; cell viability; 72 h).
For O=C(c1cc(-n2sc3ncccc3c2=O)ccc1Cl)N1CCOCC1, the CC50 was over 100 µM (TZM-bl; viability).
With COc1cc2ncnc(Nc3ccc(Oc4ccccc4)c(C)c3C)c2cc1OC.Cl the viability was 0.888 (MeWo (NF1 mutant); resazurin; 0.3 µM, 72 h, unit not given, with: trametinib; relative to: DMSO).
Under “maximum non-toxic concentration”, Cc1ccc(-c2nc(NS(=O)(=O)c3ccc(C)cc3)nc(N)c2-c2nc3ccccc3s2)cc1 is recorded as 90 µg/mL (BGM; cytotoxicity; 72 h).
With C[C@]12CC[C@@H]3c4ccc(O)cc4C[C@@H](CCCCCCCCC[S+]([O-])CCCC(F)(F)C(F)(F)F)[C@H]3[C@@H]1CC[C@@H]2O (stereo partly shown) the viability was 94.8% and 86.6% and 96.6% (LCC2 tamoxifen-resistant; CCK-8; 50 nM; relative to: untreated).
For O=C(CNc1nc(NS(=O)(=O)c2ccccc2)ncc1-c1nc2ccccc2s1)c1ccc(Br)cc1, “maximum non-toxic concentration” read 120 µg/mL (BGM; cytotoxicity; 72 h).
Nc1n[nH]c2c(-c3nc4ccccc4s3)c(N)n(NS(=O)(=O)c3ccccc3)c(=O)c12 — result for “maximum non-toxic concentration”: 90 µg/mL (BGM; 72 h).
CCCC(CCC)NC(=O)c1ccc2c(c1)OCO2: “cells with aberrations” 0.5% (CHO-WBL; 0.56 mg/mL, 3 h, with rat liver S9).
With CCN(CC)C(=S)SSC(=S)N(CC)CC the AC50 was under 1 µM (differentiated LUHMES MT1G::HiBiT-G2 neurons; cytotoxicity; 3D neurospheres; 24 h).
COc1ccc(-c2nc(NS(=O)(=O)c3ccc(C)cc3)nc(N)c2-c2nc3ccccc3s2)cc1 — result for “maximum non-toxic concentration”: 90 µg/mL (BGM; cytotoxicity; 72 h).
COc1cccc2c1C(=O)c1c(O)c3c(c(O)c1C2=O)C[C@@](O)(C(=O)CO)C[C@@H]3O[C@H]1C[C@H](N)[C@H](O)[C@H](C)O1 has a viability of 99% (BNL mouse liver cells; SRB; 0.1 µM, 10% fetal bovine serum).
Under “maximum non-toxic concentration”, CSc1c(-c2nc3ccccc3[nH]2)c(N)n(NS(=O)(=O)c2ccccc2)c(=O)c1C#N is recorded as 100 µg/mL (BGM; 72 h).
The inhibition of O=C(O)C1=CC(=C(c2ccc(O)c(C(=O)O)c2)c2ccc(O)c(C(=O)O)c2)C=CC1=O is reported as under 5% (MC-38; cell proliferation, IncuCyte confluence; 100 µM).

Some of these lines once more:
With CCN(CC)C(=S)SSC(=S)N(CC)CC the AC50 was under 1 µM (differentiated LUHMES MT1G::HiBiT-G2 neurons; cytotoxicity; 3D neurospheres; 24 h).
Cc1noc(C)c1Cn1cc(N2C(=O)CN(Cc3cccc(O)c3)C2=O)cn1 — result for “aberrant cells without gaps”: 2% (human blood lymphocytes; 200 µg/mL, 21 h).
